Experimental data from different studies.
Each line is one published result; not all experiments were run side by side. ± marks the error that the study gave.

Structure (SMILES) | assay | system | conditions | Tmax
CCCCCCCC/C=C\CCCCCCCCOP(O)(O)=S.N |  | mouse, male, irradiated | sc, dose not given, 15.6 Gy partial-body, dosed 24 h after | 30 min
COCC[C@H](NC(=O)[C@H](CC(C)C)N(C)C(=O)CNC(=O)[C@@H](NC(=O)[C@H](Cc1ccc(O)cc1)NC(=O)[C@H](CCCCNC(=O)COCCOCCNC(=O)COCCOCCNC(=O)CC[C@H](NC(=O)CCCCCCCCCCCCCCCCC(=O)O)C(=O)O)NC(=O)[C@@H](N)CC(=O)O)C(C)C)C(N)=O |  | mouse, blood | subcutaneous, 325 nmol/kg | 120 min
N#CC1(c2ccc3c(N)ncnn23)OC(COP(=O)(O)OP(=O)(O)OP(=O)(O)O)C(O)C1O (stereo not shown) | LC-MS/MS | CD-1 mouse male, liver | oral, 100 mg/kg of remdesivir | 240 min
CCC(CC)OC1C=C(C(=O)OC(C)OC(=O)C(N)C(C)C)CC(NC(=N)N)C1NC(C)=O (mixture of isomers) |  | mouse (fasted), plasma | oral, 10 mg/kg | 132 ± 66 min
CCOP(=O)(OCC)OCCCCOC(=O)CC1=C(C)C(=Cc2ccc([S+](C)[O-])cc2)c2ccc(F)cc21 (stereo not shown) | HPLC | mouse, lung tissue | inhalation, 8 min exposure | 0 min
Cc1cc(Nc2nc(C[C@@]3(C(=O)O)CCN(Cc4cccc(Cl)c4F)[C@H](C)C3)cc(C)c2F)n[nH]1 |  | BALB/c nude mouse, female, NCI-H446 xenograft, plasma | oral, 10 mg/kg | ≤ 15 min
CC(C)(CCCC/C=C/CCCCCC(C)(C)C(=O)O)C(=O)O |  | ICR mouse, plasma | oral, 10 mg/kg | 7.8 min
Cc1ccc(NS(=O)(=O)c2c(C(=O)N3CCCCCC3)c(C)n(C)c2C)c(Cl)c1 |  | ICR mouse, male, plasma | oral, dose not given | ~12 min
C/C(=N\OCCCN1CCCCC1)c1ccc(C(F)(F)F)cc1 |  | C57BL/6 mouse | intravenous, 5 mg/kg | 4.8 min
O=C1CC(=O)N(c2ccccc2)c2cc(Cl)ccc2N1 | dried blood spot LC-MS/MS | mouse C57BL/6, whole blood | oral, 30 mg/kg | 120 to 180 min

Repeated from above:
Structure (SMILES) | assay | system | conditions | Tmax
CC(C)(CCCC/C=C/CCCCCC(C)(C)C(=O)O)C(=O)O |  | ICR mouse, plasma | oral, 10 mg/kg | 7.8 min
